Assay results from different studies.
“And” joins repeats or separate records; there may be more than shown. ± marks the error that the study gave.
STK26: Serine/threonine-protein kinase 26 (STK26, Homo sapiens, UniProt Q9P289)
Sequence of UniProt Q9P289 (whole entry, looked up): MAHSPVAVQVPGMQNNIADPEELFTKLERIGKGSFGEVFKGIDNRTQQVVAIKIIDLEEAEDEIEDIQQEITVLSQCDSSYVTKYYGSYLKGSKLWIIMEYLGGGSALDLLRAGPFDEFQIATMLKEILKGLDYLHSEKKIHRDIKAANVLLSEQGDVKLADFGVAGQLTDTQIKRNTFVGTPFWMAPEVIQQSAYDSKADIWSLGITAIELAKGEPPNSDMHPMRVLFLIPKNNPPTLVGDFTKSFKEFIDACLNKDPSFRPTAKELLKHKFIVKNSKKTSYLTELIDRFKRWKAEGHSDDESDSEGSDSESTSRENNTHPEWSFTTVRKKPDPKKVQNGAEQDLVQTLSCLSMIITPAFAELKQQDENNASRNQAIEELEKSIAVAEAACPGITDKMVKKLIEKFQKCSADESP
STK11: Serine/threonine-protein kinase STK11 (STK11, Homo sapiens, UniProt Q15831)
Sequence of UniProt Q15831 (whole entry, looked up): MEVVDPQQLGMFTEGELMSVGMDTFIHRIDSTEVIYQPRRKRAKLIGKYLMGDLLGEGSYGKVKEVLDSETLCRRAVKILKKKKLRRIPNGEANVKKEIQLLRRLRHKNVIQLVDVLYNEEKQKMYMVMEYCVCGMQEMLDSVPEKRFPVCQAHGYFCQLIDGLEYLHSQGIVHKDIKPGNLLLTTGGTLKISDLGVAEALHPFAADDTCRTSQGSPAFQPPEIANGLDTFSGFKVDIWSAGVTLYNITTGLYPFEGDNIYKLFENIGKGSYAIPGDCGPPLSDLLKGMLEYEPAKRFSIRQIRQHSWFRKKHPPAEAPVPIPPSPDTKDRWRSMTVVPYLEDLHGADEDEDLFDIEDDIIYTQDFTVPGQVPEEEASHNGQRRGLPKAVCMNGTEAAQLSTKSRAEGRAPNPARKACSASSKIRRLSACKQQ
DCLRE1A: DNA cross-link repair 1A protein (DCLRE1A, Homo sapiens, UniProt Q6PJP8)
Sequence of UniProt Q6PJP8 (whole entry, looked up): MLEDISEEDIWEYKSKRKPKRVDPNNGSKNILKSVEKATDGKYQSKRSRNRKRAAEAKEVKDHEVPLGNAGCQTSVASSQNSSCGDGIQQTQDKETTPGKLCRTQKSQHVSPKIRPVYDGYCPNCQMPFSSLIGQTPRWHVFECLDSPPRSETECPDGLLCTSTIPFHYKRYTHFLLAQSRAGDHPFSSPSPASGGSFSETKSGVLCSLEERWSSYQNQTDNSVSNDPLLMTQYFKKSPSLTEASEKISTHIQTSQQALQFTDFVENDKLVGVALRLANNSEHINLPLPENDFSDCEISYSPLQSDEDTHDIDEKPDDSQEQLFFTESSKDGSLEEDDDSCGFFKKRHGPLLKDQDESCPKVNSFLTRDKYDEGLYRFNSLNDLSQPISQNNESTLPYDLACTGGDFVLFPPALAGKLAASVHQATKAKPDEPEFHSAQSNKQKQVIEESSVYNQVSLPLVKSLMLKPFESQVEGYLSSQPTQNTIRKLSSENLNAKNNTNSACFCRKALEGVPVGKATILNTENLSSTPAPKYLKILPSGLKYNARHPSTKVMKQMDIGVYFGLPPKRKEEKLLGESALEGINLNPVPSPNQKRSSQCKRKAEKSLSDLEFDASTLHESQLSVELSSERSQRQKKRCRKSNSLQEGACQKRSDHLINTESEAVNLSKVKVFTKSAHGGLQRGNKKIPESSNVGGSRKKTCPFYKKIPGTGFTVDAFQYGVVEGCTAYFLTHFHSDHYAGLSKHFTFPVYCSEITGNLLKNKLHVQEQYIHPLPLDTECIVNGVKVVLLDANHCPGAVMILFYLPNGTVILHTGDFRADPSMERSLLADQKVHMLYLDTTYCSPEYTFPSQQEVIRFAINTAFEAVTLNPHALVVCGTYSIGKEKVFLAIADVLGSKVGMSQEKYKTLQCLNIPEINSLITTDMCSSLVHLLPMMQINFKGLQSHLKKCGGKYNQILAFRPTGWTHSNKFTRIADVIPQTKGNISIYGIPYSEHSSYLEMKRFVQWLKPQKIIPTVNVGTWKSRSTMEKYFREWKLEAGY
PRKACA: cAMP-dependent protein kinase catalytic subunit alpha (PRKACA, Homo sapiens, UniProt P17612)
Sequence of UniProt Q92626 (whole entry, looked up): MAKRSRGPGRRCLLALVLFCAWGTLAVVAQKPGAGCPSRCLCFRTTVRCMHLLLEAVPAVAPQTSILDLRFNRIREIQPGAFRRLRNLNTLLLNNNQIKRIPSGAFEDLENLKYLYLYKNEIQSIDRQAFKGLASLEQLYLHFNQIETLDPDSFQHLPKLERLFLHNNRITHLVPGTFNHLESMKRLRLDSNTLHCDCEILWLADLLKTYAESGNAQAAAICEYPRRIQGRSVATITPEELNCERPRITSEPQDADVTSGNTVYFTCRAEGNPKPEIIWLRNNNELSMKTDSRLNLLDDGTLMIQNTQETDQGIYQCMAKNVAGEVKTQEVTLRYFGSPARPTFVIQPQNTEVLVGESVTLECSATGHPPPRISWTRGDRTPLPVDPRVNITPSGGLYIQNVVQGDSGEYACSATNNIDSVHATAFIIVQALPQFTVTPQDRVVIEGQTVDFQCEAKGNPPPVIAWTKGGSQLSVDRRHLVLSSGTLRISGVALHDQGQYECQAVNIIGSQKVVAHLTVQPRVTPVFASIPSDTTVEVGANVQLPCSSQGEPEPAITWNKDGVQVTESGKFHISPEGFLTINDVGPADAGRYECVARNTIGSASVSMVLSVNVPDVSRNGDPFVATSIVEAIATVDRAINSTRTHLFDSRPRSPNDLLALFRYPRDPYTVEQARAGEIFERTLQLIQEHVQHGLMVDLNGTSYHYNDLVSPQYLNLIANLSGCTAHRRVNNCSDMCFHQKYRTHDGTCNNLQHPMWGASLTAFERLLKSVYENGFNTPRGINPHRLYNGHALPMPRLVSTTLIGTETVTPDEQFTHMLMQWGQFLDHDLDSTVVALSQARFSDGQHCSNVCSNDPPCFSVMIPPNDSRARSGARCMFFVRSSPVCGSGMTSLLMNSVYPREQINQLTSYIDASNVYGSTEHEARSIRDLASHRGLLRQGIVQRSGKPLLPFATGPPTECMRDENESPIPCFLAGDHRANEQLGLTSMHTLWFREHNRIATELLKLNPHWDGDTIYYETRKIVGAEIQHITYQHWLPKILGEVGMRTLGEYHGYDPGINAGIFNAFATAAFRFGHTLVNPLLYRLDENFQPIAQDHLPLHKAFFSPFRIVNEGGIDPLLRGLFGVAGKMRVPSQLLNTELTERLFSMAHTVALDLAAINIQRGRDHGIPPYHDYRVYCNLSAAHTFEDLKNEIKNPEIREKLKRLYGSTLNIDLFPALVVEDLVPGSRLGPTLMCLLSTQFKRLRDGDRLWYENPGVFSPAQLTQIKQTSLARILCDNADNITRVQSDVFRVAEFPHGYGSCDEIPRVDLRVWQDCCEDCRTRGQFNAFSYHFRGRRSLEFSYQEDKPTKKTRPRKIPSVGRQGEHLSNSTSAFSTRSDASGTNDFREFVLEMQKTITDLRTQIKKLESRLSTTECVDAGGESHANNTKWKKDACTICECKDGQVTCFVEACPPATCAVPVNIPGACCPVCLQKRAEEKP
Sequence of UniProt Q8BTI9 (whole entry, looked up): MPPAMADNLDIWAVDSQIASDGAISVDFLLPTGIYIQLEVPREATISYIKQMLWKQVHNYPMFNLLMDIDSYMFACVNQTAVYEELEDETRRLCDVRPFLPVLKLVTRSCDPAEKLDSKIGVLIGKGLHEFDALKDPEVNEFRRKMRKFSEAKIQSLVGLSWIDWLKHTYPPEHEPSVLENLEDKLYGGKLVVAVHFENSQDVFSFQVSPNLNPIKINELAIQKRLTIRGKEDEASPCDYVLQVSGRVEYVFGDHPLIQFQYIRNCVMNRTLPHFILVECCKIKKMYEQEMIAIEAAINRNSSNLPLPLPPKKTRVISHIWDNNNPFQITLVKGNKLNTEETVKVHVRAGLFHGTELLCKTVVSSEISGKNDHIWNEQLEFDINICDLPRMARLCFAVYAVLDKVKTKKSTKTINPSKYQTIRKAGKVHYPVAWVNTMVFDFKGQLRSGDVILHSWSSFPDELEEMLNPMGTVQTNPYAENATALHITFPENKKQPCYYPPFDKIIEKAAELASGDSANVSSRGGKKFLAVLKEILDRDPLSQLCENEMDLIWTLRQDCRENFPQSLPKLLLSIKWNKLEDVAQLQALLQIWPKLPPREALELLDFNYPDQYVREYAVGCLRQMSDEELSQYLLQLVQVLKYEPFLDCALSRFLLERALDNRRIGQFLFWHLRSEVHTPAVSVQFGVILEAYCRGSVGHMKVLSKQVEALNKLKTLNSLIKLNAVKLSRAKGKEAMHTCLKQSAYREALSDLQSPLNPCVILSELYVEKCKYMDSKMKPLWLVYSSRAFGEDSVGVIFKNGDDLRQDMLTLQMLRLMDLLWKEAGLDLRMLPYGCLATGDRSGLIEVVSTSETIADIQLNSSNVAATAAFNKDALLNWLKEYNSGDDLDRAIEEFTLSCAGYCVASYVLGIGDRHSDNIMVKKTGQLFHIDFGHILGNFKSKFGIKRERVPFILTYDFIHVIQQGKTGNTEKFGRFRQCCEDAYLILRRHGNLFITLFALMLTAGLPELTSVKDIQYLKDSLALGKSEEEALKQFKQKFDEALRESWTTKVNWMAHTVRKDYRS
Sequence of UniProt P31749 (whole entry, looked up): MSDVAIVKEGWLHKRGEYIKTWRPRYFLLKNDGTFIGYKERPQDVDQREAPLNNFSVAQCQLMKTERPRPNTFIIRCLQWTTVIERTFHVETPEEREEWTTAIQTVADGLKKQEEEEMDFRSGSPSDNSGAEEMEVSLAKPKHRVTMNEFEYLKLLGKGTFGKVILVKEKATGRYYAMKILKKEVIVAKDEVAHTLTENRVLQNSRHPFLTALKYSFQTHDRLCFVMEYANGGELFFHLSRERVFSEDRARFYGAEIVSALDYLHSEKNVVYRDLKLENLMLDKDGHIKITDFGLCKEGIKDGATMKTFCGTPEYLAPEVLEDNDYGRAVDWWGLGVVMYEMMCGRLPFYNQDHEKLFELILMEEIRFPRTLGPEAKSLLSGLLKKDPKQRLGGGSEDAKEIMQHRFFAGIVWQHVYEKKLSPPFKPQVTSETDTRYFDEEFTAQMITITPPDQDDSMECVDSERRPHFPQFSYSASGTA

For `CC#CC(=O)N1CCC[C@H]1c1nc(-c2ccc(C(=O)Nc3ccccn3)cc2)c2c(N)nccn12`, the remaining activity was 88.4 ± 1.3% (STK26; kinase activity, inhibitor, HotSpot radiometric; 100 nM, together with: ATP 10 µM).
The patients of `CCOc1c([C@H](C)n2nc(C)c3c(N)ncnc32)cc(Cl)c(F)c1[C@@H]1CNC(=O)C1` is reported as 2.9% (measured: QTcF change above 60 ms; previously treated B-cell malignancy; oral, 20 mg once daily, baseline QTcF ≤450 ms; baseline: baseline).
`CC[C@H](NC(=O)[C@H](Cc1cscn1)NC(=O)CCc1ccccc1)C(=O)N[C@@H](CCCNC(=N)N)C(=O)c1nc2ccccc2s1` has a remaining activity of 14% (Transmembrane protease serine 6 (Homo sapiens, UniProt Q8IU80); enzyme activity, inhibitor; 100 nM; baseline: vehicle).
`COc1ccc(Cl)cc1-c1cc(=O)[nH]c(=S)n1CC(N)=O` has a remaining activity of 72.7% (Myeloperoxidase (MPO, Homo sapiens, UniProt P05164); 0.625 µM, 0.1 h).
With `O=C(NC1CCC1)c1ccc2nc(-c3cccc(NS(=O)(=O)NCCN4CCCCC4)c3)cn2c1` the remaining activity was 28% (MAP3K19 (Homo sapiens, UniProt Q56UN5); enzyme activity; 10 µM).
`CC(C)C[C@H](NC(=O)C[C@H](O)[C@H](CC(C)C)NC(=O)[C@H](Cc1c[nH]cn1)NC(=O)CNC(=O)[C@@H](NC(=O)[C@H](C)NC(=O)[C@H](Cc1c[nH]c2ccccc12)NC(=O)[C@H](CCC(N)=O)NC(=O)[C@@H](Cc1ccccc1)NC(=O)COCCOCCNC(=O)CCC(C(=O)O)N1CCN(CC(=O)O)CCN(CC(=O)O)CCN(CC(=O)O)CC1)C(C)C)C(N)=O` (stereo partly drawn) [lutetium-177 labelled] has a tissue uptake of 0.2 ± 0.04 %ID/g (female BALB/c nu/nu mice, lung; intravenous, 100 pmol, 2 h, together with: PA 300 µg).
`COc1cc(Nc2ncc3c(n2)-c2ccc(Cl)cc2C(c2c(F)cccc2OC)=NC3)ccc1C(=O)O` gave a remaining activity of 104% (KIT; inhibitor, biochemical kinase; 1 µM).
`C=CC(=O)N1CCC[C@@H](n2nc(-c3ccc(Oc4ccccc4)cc3)c3c(N)ncnc32)C1` has a remaining activity of 85.1% (MYLK (Homo sapiens, UniProt Q15746); 1 µM).
The remaining activity of `O=C(O)c1ccc(Nc2ncc3c(n2)-c2ccc(Cl)cc2C(c2c(F)cccc2F)=NC3)cc1` is reported as 110% (human LIMK1(h); kinase activity; 1 µM).
The remaining activity of `COc1cc(N2CCN(C)CC2)ccc1Nc1nc(N)n(C(=O)NCc2c(Cl)cccc2Cl)n1` is reported as 5% (STK11; enzyme activity; 10 µM; baseline: control).
`Cc1nc(N=Nc2cc(S(=O)(=O)[O-])c3cc([N+](=O)[O-])cc(S(=O)(=O)[O-])c3c2)c(COP(=O)([O-])[O-])c(C=O)c1O.[Na+].[Na+].[Na+].[Na+]` gave a remaining activity of 51.8% (DCLRE1A; exonuclease activity, inhibitor, fluorescence HTS; 10 µM, 80 min, together with: 8 nM 5P-FQ substrate; baseline: high and low controls).
`COc1cc(-c2cncc3c2CN(C)Cc2cc(N4CCNCC4)ccc2-3)cc(OC)c1OC` has a remaining activity of 90% (Phosphatidylinositol 4,5-bisphosphate 3-kinase catalytic subunit beta isoform, with p85 beta (Pik3cb, Mus musculus, UniProt Q8BTI9); kinase activity; 1 µM, p110b/p85b)(m mouse, together with: ATP 10 µM; baseline: DMSO).
`Cc1cc(Nc2ccc(S(F)(F)(F)(F)F)cc2)n2nc(C(C)(F)F)nc2n1`: “patients with QTcF increase” 0% (Plasmodium vivax; 12-lead ECG; malaria patients; oral, 400 mg, increase above 30 ms).
For `O=C(NCCN1CCCC1=O)c1ccc([C@H]2[C@@H](F)[C@@H](F)C[C@@H](F)[C@H]2F)cc1`, the hepatic clearance was 1.26 L/h/kg (hepatocyte stability; cryopreserved mouse hepatocytes; 1 µM).
For `Cc1[nH]c(/C=C2\C(=O)Nc3ccc(F)cc32)c(C)c1C(=O)N[C@H]1CCN(C(=O)N(C)C)C1`, the remaining activity was 40% (AMPK, rat; kinase activity, KinaseProfiler; 1 µM; baseline: control).
The remaining activity of `O=C1NC(=O)/C(=C/c2ccc(-c3ccc(F)cc3O)o2)S1` is reported as 66% (PRKACA; enzyme activity; 10 µM).
`O=C1C=C2CC3(O)COc4c(ccc(O)c4O)C3=C2C=C1O` (stereo not drawn) has a remaining activity of 18.6% (DCLRE1A; exonuclease activity, inhibitor, fluorescence HTS; 10 µM, 80 min, together with: 8 nM 5P-FQ substrate).
The remaining activity of `COc1cc(N2CCN(C)CC2)ccc1Nc1nc(N)n(C(=S)NCc2c(Cl)cccc2Cl)n1` is reported as 0.45% (DYRK1B (Homo sapiens, UniProt Q9Y463); enzyme activity; 10 µM; baseline: control).
For `COc1cc(O)c2c(c1)oc(=O)c1c3cc(O)c(O)cc3oc21`, the remaining activity was 26.6% (DCLRE1A; exonuclease activity, inhibitor, fluorescence HTS; 10 µM, 80 min, together with: 8 nM 5P-FQ substrate).
For `COc1cc(F)ccc1-c1ncnc(Nc2cccc(C[S@](C)(=N)=O)c2)n1`, the remaining activity was 113% (PRKACA; kinase activity; 10 µM, together with: 10 µM ATP).
`CNc1ncc2c(/C=C/C(=O)N3CCC(OC)CC3)nn(Cc3cccc(C(F)(F)F)c3)c2n1` gave a remaining activity of 104% (EPHB1 (Homo sapiens, UniProt P54762); kinase activity, inhibitor; 1 µM; baseline: untreated control).
`COc1ccc(F)cc1C(=O)NCc1ccc(-c2nn([C@@H](C)C(F)(F)F)c(N)c2C(N)=O)cc1` has a remaining activity of 94.5 ± 1.2% (ARAF (Homo sapiens, UniProt P10398); 1000 nM, together with: ATP at Km).
The remaining activity of `O=C(Nc1cccc(C(=O)Nc2ccc(S(=O)(=O)O)c3cc(S(=O)(=O)O)cc(S(=O)(=O)O)c23)c1)Nc1cccc(C(=O)Nc2ccc(S(=O)(=O)O)c3cc(S(=O)(=O)O)cc(S(=O)(=O)O)c23)c1` is reported as 49.6% (DCLRE1A; exonuclease activity, inhibitor, fluorescence HTS; 10 µM, 80 min, together with: 8 nM 5P-FQ substrate; baseline: high and low controls).
The remaining activity of `Cc1cc(NC(=O)c2cccc(NC(=O)/C=C/CN(C)C)c2)ccc1Nc1nccc(-c2cccnc2)n1` is reported as 1.04 (MAPK8 (Homo sapiens, UniProt P45983); enzyme activity, inhibitor; 0.0007527 µM, 6 h, unit not given, together with: GSH 10 mM pre-incubation; baseline: vehicle).
`CC[C@H](CC[C@@H](C)[C@H]1CC[C@H]2[C@@H]3CC=C4C[C@@H](O)CC[C@]4(C)[C@H]3CC[C@]12C)C(C)C` has a remaining activity of 20.4% (DCLRE1A; exonuclease activity, inhibitor, fluorescence HTS; 10 µM, 80 min, together with: 8 nM 5P-FQ substrate).
The remaining activity of `NC/C(=C\F)COc1cccc(Cn2c(=S)[nH]c(=O)c3[nH]cnc32)c1` is reported as 46.5% and 43.9% (Peroxidasin homolog (PXDN, Homo sapiens, UniProt Q92626); enzyme activity, inhibitor, Amplex UltraRed; 10 µM; baseline: control).
For `C[C@@H]1CC[C@@]23CCC4(C)[C@@](C=CC5[C@@]6(C)CCC(=O)C(C)(C)C6CC[C@]54C)(OC2=O)C3[C@H]1C` (stereo partly drawn), the remaining activity was 42% (DCLRE1A; exonuclease activity, inhibitor, fluorescence HTS; 10 µM, 80 min, together with: 8 nM 5P-FQ substrate).
For `Cn1cc(-c2ccc(-c3cncc(Cl)c3N3CCC4(CCNC4=O)CC3)cc2)cn1`, “log2 fold change” read 2.14 (COLO 205; gene expression, microarray, measured: CTSB mRNA; concentration not given, 2 h; baseline: untreated cells).
The remaining activity of `c1cnc2ccc(Nc3nc(NC4CC4)c4nc[nH]c4n3)cc2c1` is reported as 103% (AKT1 (Homo sapiens, UniProt P31749); kinase activity, inhibitor, SelectScreen kinase profiling; 1 µM; baseline: control).
With `O=c1oc2c(O)c(O)cc3c(=O)oc4c(O)c(O)cc1c4c23` the remaining activity was 45% (DCLRE1A; exonuclease activity, inhibitor, fluorescence HTS; 10 µM, 80 min, together with: 8 nM 5P-FQ substrate).
With `Cc1cc(Nc2cc(N3CCN(C)CC3)nc(Sc3ccc(NC(=O)C4CC4)cc3)n2)[nH]n1` the remaining activity was 85% (STK11; kinase activity, KinaseProfiler; 0.03 µM, species human; baseline: control).
With `C=CC(=O)N1CCC[C@@H](n2nc(-c3ccc(Oc4ccccc4)cc3)c3c(N)ncnc32)C1` the remaining activity was 76.5 ± 1% (STK26; kinase activity, inhibitor, HotSpot radiometric; 100 nM, together with: ATP 10 µM).
`C[C@H]1[C@H](OC(=O)CCC(=O)O)O[C@@H]2O[C@@]3(C)CC[C@H]4[C@H](C)CC[C@@H]1[C@@]24OO3` has a remaining activity of 61.6% (Non-structural polyprotein pORF1, RNA-dependent RNA polymerase (Hepatitis E virus genotype 1, UniProt P33424); polymerase activity, inhibitor, colorimetric; 4.8 µM; baseline: solvent control).
`O=C(Nc1ccc(C2CCCCC2)cc1)c1cn[nH]c1` gave a hepatic clearance of 2.76 L/h/kg (cryopreserved rat hepatocytes; 1 µM).
`OCCS` has a remaining activity of 90.8 ± 1.2% (uncharacterized protein (Lacticaseibacillus rhamnosus, UniProt A0A7S7JIA0); inhibitor; 1000 µM, 5 min; baseline: untreated).
The remaining activity of `O=c1cc(O)cc(/C=C/c2ccc(O)c(O)c2)o1` is reported as 41.9% (DCLRE1A; exonuclease activity, inhibitor, fluorescence HTS; 10 µM, 80 min, together with: 8 nM 5P-FQ substrate).

For quick reference, copied from above:
With `O=c1oc2c(O)c(O)cc3c(=O)oc4c(O)c(O)cc1c4c23` the remaining activity was 45% (DCLRE1A; exonuclease activity, inhibitor, fluorescence HTS; 10 µM, 80 min, together with: 8 nM 5P-FQ substrate).
With `Cc1cc(Nc2cc(N3CCN(C)CC3)nc(Sc3ccc(NC(=O)C4CC4)cc3)n2)[nH]n1` the remaining activity was 85% (STK11; kinase activity, KinaseProfiler; 0.03 µM, species human; baseline: control).
With `C=CC(=O)N1CCC[C@@H](n2nc(-c3ccc(Oc4ccccc4)cc3)c3c(N)ncnc32)C1` the remaining activity was 76.5 ± 1% (STK26; kinase activity, inhibitor, HotSpot radiometric; 100 nM, together with: ATP 10 µM).
`C[C@H]1[C@H](OC(=O)CCC(=O)O)O[C@@H]2O[C@@]3(C)CC[C@H]4[C@H](C)CC[C@@H]1[C@@]24OO3` has a remaining activity of 61.6% (Non-structural polyprotein pORF1, RNA-dependent RNA polymerase (Hepatitis E virus genotype 1, UniProt P33424); polymerase activity, inhibitor, colorimetric; 4.8 µM; baseline: solvent control).
